Assay results of several laboratories.
Numbered parts are unrelated; each lists some results of a single study. Changes are numbered by the printed parent chain.

Study 1
Target: tungstate, free oxyanion
Technique: microfluidic competitive inhibition
Sample: in vitro, cell-free expressed
Concentration: not given
Notes: derived from inhibition constants, unchanged parent 2230 nM
Direction: lower = stronger binding
Starting sequence: PafA, mature enzyme, eGFP fusion (Elizabethkingia meningoseptica, UniProt Q9KJX5); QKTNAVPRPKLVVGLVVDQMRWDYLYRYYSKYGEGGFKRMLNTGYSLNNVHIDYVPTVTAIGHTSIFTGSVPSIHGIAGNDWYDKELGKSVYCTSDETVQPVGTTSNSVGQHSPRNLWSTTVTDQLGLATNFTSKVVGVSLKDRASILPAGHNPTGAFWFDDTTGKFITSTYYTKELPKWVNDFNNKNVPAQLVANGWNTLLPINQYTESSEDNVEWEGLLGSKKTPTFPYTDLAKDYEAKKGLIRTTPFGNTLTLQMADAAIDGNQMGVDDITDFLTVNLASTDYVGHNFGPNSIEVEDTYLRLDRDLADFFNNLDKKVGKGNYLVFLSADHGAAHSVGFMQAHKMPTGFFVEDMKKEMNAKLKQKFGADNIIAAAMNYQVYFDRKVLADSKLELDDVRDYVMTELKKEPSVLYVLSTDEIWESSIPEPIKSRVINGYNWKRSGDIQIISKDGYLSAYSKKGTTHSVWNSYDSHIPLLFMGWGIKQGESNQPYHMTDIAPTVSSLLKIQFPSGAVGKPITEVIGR
Substitution | oxyanion analog dissociation constant [µM]
Y402G | 2.12
F368G | 2.15
L254G | 1.55
T104V | 1.61
K393G | 2.15
R21V | 2.49

Study 2
Target: Histone acetyltransferase KAT6A, winged helix 1, GST fusion (KAT6A, Homo sapiens, UniProt Q92794, residues 1-85)
Technique: protein binding microarray
Molecule type: double-stranded DNA, one strand shown
Sample: in vitro
Concentration: not given
Notes: 8-mer, flanks averaged, mean of 2 arrays, mostly near background
Baseline: not given
Direction: higher = stronger binding
Construct (chain): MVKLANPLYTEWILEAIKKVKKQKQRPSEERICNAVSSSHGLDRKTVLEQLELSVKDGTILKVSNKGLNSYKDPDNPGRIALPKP
Oligonucleotide | E-score
CGTGCTAG | 0.0879
TATTCGGA | -0.103
AAGCCGAA | -0.0116
CTGGGGCA | -0.215
AACTGTGT | -0.15
CAGAGACC | 0.0538
AAGAGACG | 0.0589
ATTCTGTG | -0.201

Study 3
Target: Sox, HMG box (Pigoraptor chileana)
Technique: Spec-seq
Molecule type: double-stranded DNA, one strand shown
Sample: in vitro
Concentration: not given
Notes: whole probe, mean of replicates
Baseline: not given
Direction: lower = stronger binding
Constant ends, left off below: GAGTCGTCTCGTCAGCAC … CCGTAGAGCACTCAGGTC
Construct (chain): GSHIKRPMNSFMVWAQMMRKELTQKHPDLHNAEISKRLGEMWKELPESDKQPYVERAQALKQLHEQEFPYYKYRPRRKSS
Oligonucleotide | relative binding energy
GCTCGTT | 1.18 ln ratio
GTCGGTT | 1.07 ln ratio
CATATCT | 0.435 ln ratio
AACGGTT | -0.956 ln ratio
CATCTGC | 0.788 ln ratio
CATAGAT | -0.32 ln ratio
CATTCAA | -0.747 ln ratio
AGTAGTT | -0.983 ln ratio

Study 4
Target: CCND3, cyclin fold, Cln2 fusion (human)
Technique: yeast growth competition, sequencing
Sample: yeast
Notes: weak parent motif
Baseline: not given
Direction: higher = stronger binding
Starting sequence: viral docking peptide; TSVRRALFTGGSD; partner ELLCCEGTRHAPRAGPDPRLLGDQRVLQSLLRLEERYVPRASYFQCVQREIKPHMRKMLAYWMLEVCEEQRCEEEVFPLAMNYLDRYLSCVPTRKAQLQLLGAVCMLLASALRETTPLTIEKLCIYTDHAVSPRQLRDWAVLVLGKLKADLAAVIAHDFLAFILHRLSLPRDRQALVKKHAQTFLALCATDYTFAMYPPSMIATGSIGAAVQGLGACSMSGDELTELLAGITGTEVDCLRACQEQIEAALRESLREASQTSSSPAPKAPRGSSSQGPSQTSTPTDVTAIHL
Substitution | normalised enrichment score
R4Y | 0.277
L7H | -0.0621
V3A | 0.0758
R4Q | 0.12
R5A | 0.12
L7Q | -0.255

Repeated from above (study 2):
Oligonucleotide | E-score
CGTGCTAG | 0.0879
TATTCGGA | -0.103
